Measured values pooled from the literature.
Protocols differ between the studies behind these lines. Numbers after ± are the reported error.

SMILES	target or system	test	system	setting	how to read	endpoint	result
[2H]C([2H])([2H])C([2H])([2H])C([2H])([2H])OC(C(=O)OC1CCNCC1)(c1ccccc1)c1ccccc1		refers to: creatine phosphokinase increased	healthy Japanese male	oral, 12 mg once daily, 16 days		adverse drug reactions	0%
CC[C@H](C)[C@@H]1NC(=O)[C@H](CCCCN)NC(=O)[C@H](CCCCN)NC(=O)[C@H](Cc2ccc(O)cc2)NC(=O)[C@H](CC(C)C)NC(=O)[C@@H]2CCCN2C(=O)[C@H](C)NC(=O)CNC(=O)CNC(=O)[C@H](CO)NC(=O)CNC(=O)CNC(=O)[C@H](CO)NC(=O)[C@H](CCC(=O)O)NC(=O)[C@H](CC(C)C)NC(=O)[C@H](CC(C)C)NC(=O)[C@H](CCCCN)NC(=O)[C@H](CCCCN)NC(=O)[C@H]([C@@H](C)CC)NC(=O)[C@H]([C@@H](C)CC)NC(=O)[C@H](CCCCN)NC(=O)[C@H](CCCCN)NC(=O)[C@H](Cc2ccc(O)cc2)NC(=O)[C@H](CC(C)C)NC(=O)[C@@H]2CCCN2C(=O)CNC(=O)CNC(=O)[C@@H](NC(=O)CN)CSSC[C@@H](C(=O)O)NC(=O)[C@H](CC(C)C)NC(=O)[C@H](CCCCN)NC(=O)[C@H](CCCCN)NC(=O)[C@H]([C@@H](C)CC)NC1=O		hemolysis	uninfected human erythrocytes	1 h		HC10	74.7 ± 3.5 µM
CCC(=O)N(C)c1ccc(Cl)c(Cl)c1	Salmonella typhimurium	Ames test	TA1537	1.00 mg/plate, without S9 activation		revertants	1 ± 0.6 revertants/plate
CC[C@H](C)[C@H](NC(=O)[C@H](CCCNC(=N)N)NC(=O)[C@H](CC(C)C)NC(=O)[C@H](CC(C)C)NC(=O)[C@H](C)NC(=O)[C@@H](NC(=O)[C@H](CCCCN)NC(=O)[C@H](CCCCN)NC(=O)[C@H](C)NC(=O)[C@@H](NC(=O)[C@H](Cc1c[nH]c2ccccc12)NC(=O)[C@@H](NC(=O)[C@H](Cc1ccc(O)cc1)NC(=O)[C@H](Cc1ccccc1)NC(=O)[C@H](CC(=O)O)NC(=O)[C@H](Cc1ccc(O)cc1)NC(=O)[C@@H](NC(=O)[C@H](CC(C)C)NC(=O)[C@H](CO)NC(=O)[C@H](C)NC(=O)[C@H](C)NC(=O)[C@@H](NC(=O)[C@@H](NC(=O)[C@@H](N)CC(C)C)[C@@H](C)CC)C(C)C)C(C)C)[C@@H](C)O)[C@@H](C)CC)C(C)C)C(=O)N[C@@H](C)C(=O)N[C@@H](CCCCN)C(=O)N[C@@H](CCCCN)C(=O)N[C@H](C(=O)N[C@@H](CC(C)C)C(=O)N[C@@H](Cc1ccc(O)cc1)C(=O)N[C@@H](CC(C)C)C(=O)N[C@@H](C)C(=O)N[C@@H](CCCNC(=N)N)C(=O)N[C@@H](CC(N)=O)C(=O)N[C@@H](C)C(=O)O)C(C)C			human erythrocytes	4 µM, 1 h, pH 7.4, 37 °C		hemolysis	8.5%
COC(=O)C[C@](O)(CCCC(C)(C)OC(C)=O)C(=O)O[C@@H]1C(OC)=C[C@]23CCCN2CCc2cc4c(cc2[C@H]13)OCO4			CD1 mouse, stomach	subcutaneous, 1 mg/kg, 24 h, below quantification limit 1.00 ng/mL		tissue concentration	not detected
N=C(N)NCCC[C@@H]1NC(=O)[C@H](CCCCNC(=O)CC[C@H](NC(=O)CCOCCOCCOCCOCCNC(=O)CC[C@H](NC(=O)CN2CCN(CC(=O)O)CCN(CC(=O)O)CCN(CC(=O)O)CC2)C(=O)NCCOCCOCCOCCOCCC(=O)N[C@@H](CCC(=O)NCCCC[C@@H]2NC(=O)[C@@H](Cc3ccccc3)NC(=O)[C@H](CC(=O)O)NC(=O)CNC(=O)[C@H](CCCNC(=N)N)NC2=O)C(=O)NCCCC[C@@H]2NC(=O)[C@@H](Cc3ccccc3)NC(=O)[C@H](CC(=O)O)NC(=O)CNC(=O)[C@H](CCCNC(=N)N)NC2=O)C(=O)NCCCC[C@@H]2NC(=O)[C@@H](Cc3ccccc3)NC(=O)[C@H](CC(=O)O)NC(=O)CNC(=O)[C@H](CCCNC(=N)N)NC2=O)NC(=O)[C@@H](Cc2ccccc2)NC(=O)[C@H](CC(=O)O)NC(=O)CNC1=O [indium-111 labelled]			female athymic nude mice, kidney	intravenous, 3 µCi, 24 h, U-87 MG glioma xenograft		tissue uptake	4.38 ± 1.1 %ID/g
CCCC[C@H](NC(=O)CNC(=O)CNC(=O)c1ccc(NN)nc1)C(=O)N[C@H]1CC(=O)NCCCC[C@@H](C(N)=O)NC(=O)[C@H](Cc2c[nH]c3ccccc23)NC(=O)[C@H](CCCNC(=N)N)NC(=O)[C@@H](Cc2ccccc2)NC(=O)[C@H](Cc2c[nH]cn2)NC1=O [technetium-99m labelled]			C57 mouse, B16/F1 melanoma-bearing	intravenous, 24 h	reference: tumour over muscle	tissue uptake ratio	151
CCOP(=O)(OCC)OCCCCOC(=O)CC1=C(C)C(=Cc2ccc([S+](C)[O-])cc2)c2ccc(F)cc21 (centres unmarked)		HPLC	nude mice, orthotopic lung tumour, tumour	inhalation, dose not given		drug level	> 10 nmol/g
CCNc1cc2[o+]c3cc(NCC)c(C)cc3c(-c3ccccc3C(=O)OCCOCC[18F])c2cc1C			rat, kidney	15 min		tissue uptake	10.2 ± 3.7 %ID/g
CC1=CC=c2ccc3c4c2[N]1[Re](=[C]=O)(=[C]=O)(=[C]=O)([C]#[N+]c1ccc(Cl)cc1)[N]4C(C)=CC=3.O=S(=O)([O-])C(F)(F)F		cyclic voltammetry	acetonitrile	irreversible reduction		cathodic peak potential	-1.29 V vs SCE
CSCC[C@H](NC(=O)[C@H](CO)NC(=O)[C@H](Cc1ccc(O)cc1)NC(=O)[C@@H](N)CO)C(=O)N[C@@H](CCC(=O)O)C(=O)N[C@@H](Cc1c[nH]cn1)C(=O)N[C@@H](Cc1ccccc1)C(=O)N[C@@H](CCCNC(=N)N)C(=O)N[C@@H](Cc1c[nH]c2ccccc12)C(=O)NCC(=O)N[C@@H](CCCCN)C(=O)N1CCC[C@H]1C(=O)N[C@H](C(=O)NCC(=O)N[C@@H](CCCCN)C(=O)N[C@@H](CCCCN)C(=O)N[C@@H](CCCNC(=N)N)C(=O)N[C@@H](CCCNC(=N)N)C(=O)N1CCC[C@H]1C(=O)N[C@H](C(=O)N[C@@H](CCCCN)C(=O)N[C@H](C(=O)N[C@@H](Cc1ccc(O)cc1)C(=O)N1CCC[C@H]1C(=O)N[C@@H](CC(=O)O)C(=O)NCC(=O)N[C@@H](C)C(=O)N[C@@H](CCC(=O)O)C(=O)N[C@@H](CC(=O)O)C(=O)N[C@@H](CCC(=O)O)C(=O)N[C@@H](CC(C)C)C(=O)N[C@@H](C)C(=O)N[C@@H](CCC(=O)O)C(=O)N[C@@H](C)C(=O)N[C@@H](Cc1ccccc1)C(=O)N1CCC[C@H]1C(=O)N[C@@H](CC(C)C)C(=O)N[C@@H](CCC(=O)O)C(=O)N[C@@H](Cc1ccccc1)C(=O)O)C(C)C)C(C)C)C(C)C			human, plasma	subcutaneous, dose not given, together with: repository corticotropin injection		time to below LLOQ	< 24 h
CC(C)[C@H](NC(=O)CNC(=O)[C@H](CCC(N)=O)NC(=O)[C@H](C)N)C(=O)O			human	10 mg/kg single dose		subjects given concomitant medication	0%
COc1ccc(CNc2nc(N3CCC[C@H]3CO)ncc2C(=O)NN)cc1Cl	Salmonella typhimurium		TA100	500 µg/plate, 48 h		revertant count	124 ± 12
Fc1ccc2nc3c4cccnc4c4ncccc4c3nc2c1.[Cl-].[Cl-].[Ru+2].c1ccncc1.c1ccncc1.c1ccncc1.c1ccncc1			red blood cells, rabbit	5 µM, 2 h, 37 °C		hemolysis	0.06 ± 0.01%
N=C(N)NCc1ccc(C(=O)NCCCC[C@H](NC(=O)N[C@@H](CCC(=O)O)C(=O)O)C(=O)O)cc1[211At]			SCID mouse, PC-3 xenografts, stomach	4 h		tissue uptake	2.87 ± 0.55 %ID/g
CC1=CC(C)(C)N=C2C=CC(=O)C=C12			female rats, bone marrow	oral, 350 mg/kg, 48 h, three of five animals	reference: vehicle	PCE/NCE ratio reduction	54%

SMILES	target or system	test	system	setting	how to read	endpoint	result
N=C(N)NCCC[C@@H]1NC(=O)[C@H](CCCCNC(=O)CC[C@H](NC(=O)CCOCCOCCOCCOCCNC(=O)CN2CCN(CC(=O)O)CCN(CC(=O)O)CCN(CC(=O)O)CC2)C(=O)NCCCC[C@@H]2NC(=O)[C@@H](Cc3ccccc3)NC(=O)[C@H](CC(=O)O)NC(=O)CNC(=O)[C@H](CCCNC(=N)N)NC2=O)NC(=O)[C@@H](Cc2ccccc2)NC(=O)[C@H](CC(=O)O)NC(=O)CNC1=O [indium-111 labelled]			female athymic nude mice, intestine	intravenous, 3 µCi, 0.5 h, U-87 MG glioma xenograft		tissue uptake	4.58 ± 1.49 %ID/g
CC(C)(CCCC/C=C/CCCCCC(C)(C)C(=O)O)C(=O)O			beagle dog, plasma	oral, 5 mg/kg		Cmax	39600 ng/mL
Cc1ccc(/C=C/C(=O)O)cc1-c1cc2c(cc1C)C(C)(C)CCC2(C)C			Sprague-Dawley rat, male, plasma	oral, 100 mg/kg, 9 h, sesame oil vehicle		LDL level	8 ± 3 mg/dL
CN[C@](C)(C[18F])C(=O)O			SCID mouse U87 xenograft, spleen	60 min, post injection		tissue uptake	8.3 ± 3.7 %ID/g
CC(CCC(=O)NCC(=O)O)C1CCC2C3C(O)CC4CC(OC5OC(C(=O)O)C(O)C(O)C5O)CCC4(C)C3CCC12C (centres unmarked)			human, SLCO1B1 *5/*14, plasma	geometric mean, sex-adjusted		plasma concentration	39.8 ng/mL
O=P1(NCCCl)NCCCO1 (centres unmarked)			rat, plasma	intravenous, 10 mg/kg, together with: ketoconazole 20 mg/kg oral 50 min before		AUC(0-inf)	558 ± 163 ng·h/mL
COc1ccc(CNc2nc(N3CCC[C@H]3CO)ncc2C(=O)NNC(=O)c2cnc(N3CCC[C@H]3CO)nc2NCc2ccc(OC)c(Cl)c2)cc1Cl	Salmonella typhimurium		TA1535	500 µg/plate, 48 h, together with: rat liver S9		revertant count	35 ± 7
COc1cc2c3c(c4cc(OC)c(OC)cc4c2cc1OC)CN1CCCCC1C3 (centres unmarked)			Sprague-Dawley rats, male	oral, dose not given		half-life	15.1 h
O=C(O)CCn1c(=O)oc2cc(Cl)c(Cl)cc21			rat, plasma	intravenous bolus, 27 mg/kg		free Cmax	92 µM
COc1cc(C(=O)NCCOCCOCCOCCNC(=O)c2ccc([18F])nc2)ccc1NC(=O)C1NC(CC(C)(C)C)C(C#N)(c2ccc(Cl)cc2F)C1c1cccc(Cl)c1F (centres unmarked)	HepG2 tumour model		host not given, lung	30 min, tumour-bearing		tracer uptake	3.59 %ID/g
CCCCCCCC(=O)OC[C@H](NC(=O)[C@H](CO)NC(=O)CN)C(=O)N[C@@H](Cc1ccccc1)C(=O)N[C@@H](CC(C)C)C(=O)N[C@@H](CO)C(=O)N1CCC[C@H]1C(=O)N[C@@H](CCC(=O)O)C(=O)N[C@@H](Cc1cnc[nH]1)C(=O)N[C@@H](CCC(N)=O)C(=O)N[C@@H](CCCNC(=N)N)C(=O)N[C@H](C(=O)N[C@@H](CCC(N)=O)C(=O)N[C@@H](CCC(N)=O)C(=O)N[C@@H](CCCNC(=N)N)C(=O)N[C@@H](CCCCN)C(=O)N[C@@H](CCC(=O)O)C(=O)N[C@@H](CO)C(=O)N[C@@H](CCCCN)C(=O)N[C@@H](CCCCN)C(=O)N1CCC[C@H]1C(=O)N1CCC[C@H]1C(=O)N[C@@H](C)C(=O)N[C@@H](CCCCN)C(=O)N[C@@H](CC(C)C)C(=O)N[C@@H](CCC(N)=O)C(=O)N1CCC[C@H]1C(=O)N[C@@H](CCCNC(=N)N)C(=O)O)C(C)C			human, plasma	intravenous infusion, 1 µg/kg/h, 210 min		mean residence time	108 ± 10 min
O=c1c2cc(Cl)ccc2sc2c(NCc3ccccc3)nc3ccccc3c12			BALB/c nude mice	i.p., 30 mg/kg		body weight gain	2.45 ± 0.02%
CNC(=O)C1CCN(c2ccccc2NC(=O)c2ccc(-c3cc(O)ccc3C)c(C)n2)CC1		metabolic stability	human, liver microsomes	2 µM		half-life	0.483 h
CN(C)CC1CCCCC1(O)c1cccc(O)c1 (centres unmarked)	human P-glycoprotein		Caco-2 TC7 monolayer	50 µM, 3 h, apical pH 6.8, basolateral pH 7.4, together with: cyclosporine A 10 µM		Papp A-to-B	5.3 ± 0.5 ×10⁻⁶ cm/s
CC[C@H](C)C(=O)N1CCC(NC(=O)Nc2ccc(OC(F)(F)F)c(F)c2)CC1			human, plasma	oral, 24 mg, single dose, healthy volunteers		AUC	6130 ng·h/mL
CC(=CCC(O)C(C)=Cc1csc(C)n1)CC=CC(C)C(O)C(C)C(=O)C(C)(C)C(O)CC(=O)O (centres unmarked)			human, plasma	intravenous infusion, 36 mg/m2 KOS-1584, 3 h infusion, cycle 1		AUC	562 ± 446 ng·h/mL

Some of these lines once more:
SMILES	target or system	test	system	setting	how to read	endpoint	result
Fc1ccc2nc3c4cccnc4c4ncccc4c3nc2c1.[Cl-].[Cl-].[Ru+2].c1ccncc1.c1ccncc1.c1ccncc1.c1ccncc1			red blood cells, rabbit	5 µM, 2 h, 37 °C		hemolysis	0.06 ± 0.01%
COc1ccc(CNc2nc(N3CCC[C@H]3CO)ncc2C(=O)NNC(=O)c2cnc(N3CCC[C@H]3CO)nc2NCc2ccc(OC)c(Cl)c2)cc1Cl	Salmonella typhimurium		TA1535	500 µg/plate, 48 h, together with: rat liver S9		revertant count	35 ± 7
CC(C)[C@H](NC(=O)CNC(=O)[C@H](CCC(N)=O)NC(=O)[C@H](C)N)C(=O)O			human	10 mg/kg single dose		subjects given concomitant medication	0%
CC[C@H](C)C(=O)N1CCC(NC(=O)Nc2ccc(OC(F)(F)F)c(F)c2)CC1			human, plasma	oral, 24 mg, single dose, healthy volunteers		AUC	6130 ng·h/mL
